Assay results from different studies.
A part holds a random share of what one study measured. Changes are numbered by the printed parent chain.

Sample 1 — target: UBE2J1 UBC core domain (UniProt Q9Y385); technique: yeast two-hybrid; matrix: yeast; notes: mostly zero background; relative to: not given; direction: higher = stronger interaction; endpoint: lacZ reporter activity
B1: ZNF598 RING domain (UniProt Q86UK7); chain AAAPERGGGSCVLCCGDLEATALGRCDHPVCYRCSTKMRVLCEQRYCAVCREELRQVVFGK
B2: CUL9 RING domain (UniProt Q8IWT3); chain AQAVPVRPDHCPVCVSPLGCDDDLPSLCCMHYCCKSCWNEYLTTRIEQNLVLNCTCPIADCPAQPTGAFIR
B3: RC3H2 RING domain (UniProt Q9HBD1); chain QAAQWTEFLSCPICYNEFDENVHKPISLGCSHTVCKTCLNKLHRKACPFDQTAINTDIDVL
B4: RNF170 RING domain (UniProt Q96K19); chain TRQQFYTDMYCPICLHQASFPVETNCGHLFCGACIIAYWRYGSWLGAISCPICRQTVTLLLTVF
B5: UHRF2 RING domain (UniProt Q96PU4); chain CGGDPEKKCHSCSCRVCGGKHEPNMQLLCDECNVAYHIYCLNPPLDKVPEEEYWYCPSCKTDSSEVVKAGER
B6: ARK2C RING domain (UniProt Q6ZSG1); chain EGEESDTDEKCTICLSMLEDGEDVRRLPCMHLFHQLCVDQWLAMSKKCPICRVDIETQLGAD
B7: IRF2BPL RING domain (UniProt Q9H1B7); chain SPMANSGPLCCTICHERLEDTHFVQCPSVPSHKFCFPCSRESIKAQGATGEVYCPSGEKCPLVGSNVP
Target sequence (chain): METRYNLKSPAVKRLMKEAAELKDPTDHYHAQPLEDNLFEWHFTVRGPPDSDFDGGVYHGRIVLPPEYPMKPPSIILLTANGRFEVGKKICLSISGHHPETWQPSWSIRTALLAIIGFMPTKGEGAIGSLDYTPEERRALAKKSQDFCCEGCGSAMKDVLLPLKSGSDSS
B1 (ZNF598 RING domain): 0
B2 (CUL9 RING domain): 0
B3 (RC3H2 RING domain): 0
QLQDIKEQTMCPVCLDRLKNMIFLCGHGTCQLCGDRMSECPICRKAIERRILLY (MIB1 RING domain (UniProt Q86YT6)): 0
KTLSRFGIQPCSICLGDAKDPVCLPCDHVHCLRCLRAWFASEQMICPYCLTALPDEFSPA (RNF213 RING domain (UniProt Q63HN8)): 0
DDENSDNSNECVVCLSDLRDTLILPCRHLCLCTSCADTLRYQANNCPICRLPFRALLQIR (MGRN1 RING domain (UniProt O60291)): 0
B4 (RNF170 RING domain): 0
B5 (UHRF2 RING domain): 0
FASPPDSNFVCSVCHGVLKRPARLPCSHIFCKKCILRWLARQKTCPCCRKEVKRKKVVH (RNF151 RING domain (UniProt Q2KHN1)): 0
B6 (ARK2C RING domain): 0
B7 (IRF2BPL RING domain): 0

Sample 2 — technique: RNA Bind-n-Seq; form: RNA; matrix: in vitro; concentration: 200 nM; notes: whole 134-nt RNA, ends assumed; together with: 150 mM KCl; relative to: input library; direction: higher = stronger binding; endpoint: log2 enrichment
Target: Fragile X messenger ribonucleoprotein 1, C-terminal low-complexity region (Fmr1, Mus musculus, UniProt P35922)
Shared flanks, not repeated: GGGAGUUCUACAGUCCGACGAUC … UGGAAUUCUCGGGUGUCAAGG
UCCUGUGCUACACAUCGUAUGUACCGAAUCGGGGUUUUUUGGUUUUUUGGGUUUUUUGGAAAGUAUUAUGUUACGCCGUUCGGAUCUGCA: -0.0413
UGGGCCUGGUGGCAUGCGGGGAGGAAGAGGUGGCCUCAUGGAUCGUGGUGGUCCCGGUGGAAUGUUCAGAGGUGGCCGUGGUGGAGACAG: 0.469
CCUCAAGUCCUGUGCUACACAUCGUAUGUACCGAAUCGGGUUGGGUUGGUUGGAAAGUAUUAUGUUACGCCGUUCGGAUCUGCACUUCCA: 0.374
UAGGAAAACCGUCUUCAGAUACAGUCCCUAAGCCCAAGAGAGCCCCAAAACAGAAGAAAGUAGUAGAGGCUGUAAACUCUGACUCGGAUU: 0.0197
ACCAUGCAGGUGGGCAUCUUUGGGAAGUGGGGCAAGGGGGGGAUAGGGAGGGGGGUAACACUUUGGGAACAGGUGUUCCCAGGUCGUUUC: 0.802
UGGCCCUGGUGGCAUGCGGGGAGGAAGAGGUGGCCUCAUGGAUCGUGGUGGUCCCGGUGGAAUGUUCAGAGGUGGCCGUGGUGGCGACAG: 0.0177
ACCAGGCAGGUGGGCAUCUUUGGGAAGUGGGGCAAGGGGGGGAUAGGGAGGGGGGUAACACUUUGGGAACAGGUGGUCCCAGGUCGUUUC: 0.842
UGGCCCUGGUGGCAUGCGGGGAGGAAGAGGUGGCCUCAUGGAUCGUGGUGGUCCCGGUGGAAUGUUCAGAGUUGGCCGUGGUGGAGACAG: 0.184
CAAGUCCUGUGCUACACAUCGUAUGUACCGAAUCGGGUUUGGGAAAAAGGGUGGGAAAGUAUUAUGUUACGCCGUUCGGAUCUGCACUUC: 1.28
UCCUGUGCUACACAUCGUAUGUACCGAAUCAAACCCCCAAACCCCCCCAAACCCCCAAAAAAGUAUUAUGUUACGCCGUUCGGAUCUGCA: -0.105
CAAGUCCUGUGCUACACAUCGUAUGUACCGAAUCGGGAAAGGGUUUUUGGGUGGGAAAGUAUUAUGUUACGCCGUUCGGAUCUGCACUUC: 0.9
AGUCCUGUGCUACACAUCGUAUGUACCGAAUCGGCCCCCGGGCCCCCGGGGCCCCCGGAAAGUAUUAUGUUACGCCGUUCGGAUCUGCAC: -0.806
GGCAGUAGCAGCAGCGCCGGGUCCCGUGCGGAGGUGCUCCUCGCAGAGUUGUUUCUCGAGCAGCGGCAGUUCUCACUACAGCGCCAGGAC: -1.02
CAAGUCCUGUGCUACACAUCGUAUGUACCGAAUCGGUUUUUGGUUUUUGGUUUGGAAAGUAUUAUGUUACGCCGUUCGGAUCUGCACUUC: -0.72

Sample 3 — technique: DHFR PCA, deep sequencing; matrix: yeast; together with: (+)-ABA 0.0091 µM; relative to: wild-type fitted maximum; direction: higher = stronger binding; endpoint: relative binding score
Target: ABI1, truncated, D143A, DHFR fusion (Arabidopsis thaliana)
Notes: methotrexate growth selection, single substitutions
Starting sequence: PYL1, truncated, DHFR fusion (Arabidopsis thaliana); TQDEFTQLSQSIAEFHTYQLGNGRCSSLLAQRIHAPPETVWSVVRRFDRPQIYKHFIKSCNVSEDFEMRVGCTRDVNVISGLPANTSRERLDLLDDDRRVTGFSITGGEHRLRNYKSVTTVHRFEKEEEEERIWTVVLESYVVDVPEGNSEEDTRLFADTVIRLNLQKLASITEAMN
V118M: 6.22%
S87E: -1.66%
T119V: -0.523%
G81F: -11.2%
V100W: -4.47%
R45D: -2.53%
E109D: 84.8%
N165A: 0.624%
T86F: 26.2%
M176L: 14.8%
V145R: -0.281%
V118Q: -12.5%
T135V: -12.7%
R46N: 2.58%
V121T: -3.38%
D144K: -3.04%
F5P: -4.29%
E89V: 0.434%
F124M: 57.9%
L29Q: 1.79%
I79S: 19.6%
F66E: -0.739%

Sample 4 — technique: RNA Bind-n-Seq; form: RNA; matrix: in vitro; concentration: 90 pmol; notes: 4-mer, random 30-nt RNA, single round; together with: 3 µM DMDA-PatA, 2 mM ADP, 2 mM phosphate; relative to: input library; direction: higher = stronger binding; endpoint: 4-mer enrichment
Target: Eukaryotic initiation factor 4A-I (EIF4A1, Homo sapiens, UniProt P60842, residues 1-406, full length assumed)
Sequence of UniProt P60842 (whole entry, looked up): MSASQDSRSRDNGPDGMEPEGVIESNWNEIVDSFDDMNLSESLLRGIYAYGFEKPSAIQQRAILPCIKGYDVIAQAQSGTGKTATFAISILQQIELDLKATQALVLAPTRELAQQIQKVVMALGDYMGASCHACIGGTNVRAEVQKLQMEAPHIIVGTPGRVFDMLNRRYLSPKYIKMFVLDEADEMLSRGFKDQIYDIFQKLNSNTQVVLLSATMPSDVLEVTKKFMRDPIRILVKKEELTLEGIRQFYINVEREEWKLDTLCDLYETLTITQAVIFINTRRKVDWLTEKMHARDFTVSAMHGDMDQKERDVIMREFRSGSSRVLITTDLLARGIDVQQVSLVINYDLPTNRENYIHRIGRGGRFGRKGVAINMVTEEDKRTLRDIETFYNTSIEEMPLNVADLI
UGUU: 1.25 fold
GCUC: 0.51 fold
CAUU: 0.749 fold
AGCA: 0.875 fold
GUGU: 2.09 fold
UAGC: 0.825 fold
AACU: 0.657 fold
CCUC: 0.584 fold
UUUU: 1.27 fold
UUCU: 0.726 fold
GUUC: 0.764 fold
GGAA: 1.08 fold
CCGU: 0.587 fold

Sample 5 — target: CCNE2, cyclin fold, Cln2 fusion (human); technique: yeast growth competition, sequencing; matrix: yeast; notes: weak parent motif; relative to: not given; direction: higher = stronger binding; endpoint: normalised enrichment score
Starting sequence: PKMYT1 docking peptide (human); SFEPRNLLSLFED
L7P: -0.682
S9Y: 0.664
E12F: 0.233
P4S: 0.347
E12I: 0.48
E3W: 0.24
F2C: 0.257
L8W: -0.36
E3C: 0.53
P4Y: -0.467
E3I: -0.0572
R5K: 0.709
D13Y: 0.49
F2V: -0.436
F11C: -0.683
P4N: -0.656
E3H: 0.811

Sample 6 — technique: protein binding microarray; form: double-stranded DNA, one strand shown; matrix: in vitro; concentration: not given; relative to: not given; direction: higher = stronger binding; endpoint: E-score
Target: Histone acetyltransferase KAT6A, winged helix 1, GST fusion (KAT6A, Homo sapiens, UniProt Q92794, residues 1-85)
Notes: 8-mer, flanks averaged, mean of 2 arrays, mostly near background
Construct (chain): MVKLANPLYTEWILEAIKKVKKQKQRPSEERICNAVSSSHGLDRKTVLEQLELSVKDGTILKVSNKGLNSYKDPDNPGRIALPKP
AATACTGC: -0.00971
AGAACGAT: -0.133
AATGGCAA: -0.186
CTGGTAGC: -0.104
CGTTCTAC: 0.0774
AATCTGCT: -0.149
CCGAGGAC: 0.115
CTAATACA: -0.183
ATAAGCAC: 0.0423
ATCCACCA: -0.189
CATTGCAG: -0.214
GAACATGC: -0.0426
AGTAGTAC: 0.0955
ATAATGGA: -0.0673
CACTGGAG: -0.168
AATACGTG: -0.112
CCGTGATA: 0.216
TGGGACCA: -0.206
CCGGTCGA: 0.198
CCACCCGG: 0.196

Excerpt of the above (sample 5):
P4S: 0.347
E12I: 0.48
E3W: 0.24
F2C: 0.257
L8W: -0.36
E3C: 0.53
P4Y: -0.467
E3I: -0.0572
R5K: 0.709
D13Y: 0.49
F2V: -0.436
F11C: -0.683
P4N: -0.656
